Measurements pooled from the literature.
A part holds a random share of what one study measured. Substitutions count along the parent as printed.

Block 1
Target: CCND2, cyclin fold, Cln2 fusion (human)
Technique: yeast growth competition, sequencing
Medium: yeast
Setting: strong parent motif
Reference: not given
Direction: higher = stronger binding
Quantity: normalised enrichment score
Parent: E2F1 docking peptide (human); PPVKRRLDFETDH
Substitution = R5I; result = 0.506
Substitution = P2C; result = 1.81
Substitution = D8E; result = 1.15
Substitution = K4D; result = 0.364
Substitution = L7T; result = 0.271
Substitution = R6E; result = 0.692
Substitution = R6S; result = 0.826
Substitution = P2Q; result = 1.06
Substitution = L7V; result = 0.368
Substitution = T11C; result = 2.1
Substitution = F9E; result = 0.393
Substitution = E10C; result = 1.79
Substitution = D8G; result = 0.317
Substitution = K4F; result = 0.507
Substitution = K4H; result = 0.699
Substitution = E10T; result = 1.88

Block 2
Target: RING finger protein unkempt homolog, zinc fingers 1-6, SBP tag (UNK, Homo sapiens, UniProt Q9C0B0, residues 30-357)
Sequence of UniProt Q9C0B0 (30-357, looked up): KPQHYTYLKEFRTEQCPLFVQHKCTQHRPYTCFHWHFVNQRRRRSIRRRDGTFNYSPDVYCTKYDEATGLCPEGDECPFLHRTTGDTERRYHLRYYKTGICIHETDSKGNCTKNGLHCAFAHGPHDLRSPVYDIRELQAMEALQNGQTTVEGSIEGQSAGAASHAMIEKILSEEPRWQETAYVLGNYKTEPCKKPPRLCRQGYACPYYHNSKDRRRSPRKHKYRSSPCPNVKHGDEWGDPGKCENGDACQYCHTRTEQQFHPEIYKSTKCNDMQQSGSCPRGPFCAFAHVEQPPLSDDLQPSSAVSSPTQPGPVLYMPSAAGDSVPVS
Technique: RNA Bind-n-Seq
Molecule type: RNA
Medium: in vitro
Concentration: 100 nM
Setting: RNA with constant flanks, vertebrate orthologous sites, ends assumed
Reference: input RNA pool
Direction: higher = stronger binding
Quantity: bound/input enrichment
All sequences stand within: GGGAGUUCUACAGUCCGACGAUC … CAACAGAGGAUUGAGCAUCA
Strand = GAGCUAAAGGAGUUAGCAUCUUUAUUUUUGUAUCAAAGAUAAGGGUUAUUUUGAAAUUAUUAGGAUUUUUACACAACUCUGAAAUCUGUUGCUUUUUGUAUAAACAAAUUGUUUGAUCUU; result = 0.958 ratio
Strand = AGCAACUCAAGGAUUGAGGACUGGUUUUACAAAUAUACCAAGUAGAUAUGGAACUAAUAAUAGAAUUGGACAACCAAGACCAUGAUAGACUCUAACUUAUUUUUAUGAGGAAUAUUGACU; result = 0.406 ratio
Strand = UAGUUUGUUUUUAAUUUCAAGCAAAAAAAUCUUAUUGUACUUGAAUGUGUCCUGUUUUGUUAGCACACCUAGACUUGCUGUAACUGUACUCAUGUCCCAGUAUGUACGUUCUUUCUAUGA; result = 0.93 ratio
Strand = CUACAAUAAUGAAAAACCUACCAGGAAUUAUUUUAUUUUUCAUUUCCCCUUGGGCAUUCCUAGUCUUUUUCCCCCCAGGCAGAUCAUUCUGAGUGUGCGAGUGUGUGUGCACAUGUUACA; result = 0.956 ratio
Strand = AGUCUAGGUGGGGGUAAGCAUUGACUUCUAAAGAAAGAGAUGAAAUGCUAAAAAUCACACUAGGACCAACUUUAGUUGGAGAAUUCGAAUACACCUCUUUUACAGAAUUCUAAAAUUAAA; result = 0.376 ratio
Strand = AGUCAUGGAGAAGAAGAUACUAAAGAUAAUCUCAUGGCACUGAUAUUAAUUUAUUUUUAUUAGUUUUACAAAAGUUAGGGUUCUUGUUUAUAAACAGCAGGUACUGACUAUUAAGGCAAA; result = 0.364 ratio
Strand = ACCCCCCACUCCCUGUAAGAGGGAAUGGGGGAAGCCUGAUGACCCUCAGCUGUUCCAAUCUAGUAUUUUUUUUUCUUUUUUAAAAUUACUGUAUUUAUUAUGACGAUGGUGACUCCCCAG; result = 1.99 ratio
Strand = GACGCCCCUCACCCUGCCCUCGGCCAGGGCUAGGACCUCUGUUACUCCGAGGACCGGCAUUGACAACAACUUUUUGACAUUGUUAACCCAGGAAGAGAUGUGACUAACACUGGCAUCUCG; result = 0.278 ratio
Strand = CUCUUUCCUAGGUUGGACCUAGUGGAAAAGUCAUAGGAAUUGAUCACAUUAAGGAGUUAGUGGACGACUCAAUAAAUAAUGUCAGAAAGGAUGACCCAAUGCUUUUGUCUUCAGGGAGAG; result = 0.531 ratio
Strand = UCAGUCCCCUGGACUGGGACAGAUUUUUUUUAACGUCUUGAAACUUAAAUUCUGUGCUUGUAGGAGACUGAAACCUUUUUGUCUUUUUUUUUUUAAACAAACAACCUCCACCUCCAGUGG; result = 0.493 ratio
Strand = UGUUUUCUUAUUUUAGGUAUCACUGCCCAAUGCCUAAGAUCUUUUACGUCCAGCUGACUGUAGGAAACAAUGAAUUUUUCGGGGAAGGAAAGACCCGACAAGCUGCUAGACACAAUGCUG; result = 1.09 ratio

Block 3
Target: Interferon regulatory factor 3, full length, phosphomimetic (IRF3, Homo sapiens, UniProt Q14653, residues 1-427, S386D/S396D/S398D/S402D/T404D/S405D)
Technique: protein-binding microarray
Molecule type: double-stranded DNA, one strand shown
Medium: in vitro
Concentration: 2540 nM top
Setting: 60-bp whole probe
Added: salmon DNA 0.4 mg/ml
Reference: random background probes
Direction: higher = stronger binding
Quantity: fitted relative affinity
All sequences stand within: GCCTAGCAC … GTCTTGATTCGCTTGACGCTGCTG
Residues (chain): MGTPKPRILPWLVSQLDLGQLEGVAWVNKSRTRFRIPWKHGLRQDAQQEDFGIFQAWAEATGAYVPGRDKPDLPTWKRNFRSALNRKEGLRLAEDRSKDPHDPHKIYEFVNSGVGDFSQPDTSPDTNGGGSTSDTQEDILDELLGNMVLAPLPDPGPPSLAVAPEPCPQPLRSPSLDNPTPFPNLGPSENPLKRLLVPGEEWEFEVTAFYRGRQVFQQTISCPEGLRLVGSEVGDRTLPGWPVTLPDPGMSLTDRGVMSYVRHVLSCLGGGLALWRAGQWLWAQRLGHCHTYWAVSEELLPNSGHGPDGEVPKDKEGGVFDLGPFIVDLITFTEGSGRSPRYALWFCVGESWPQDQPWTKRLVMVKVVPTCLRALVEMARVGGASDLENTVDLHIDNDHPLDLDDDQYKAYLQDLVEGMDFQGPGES
Strand = TAAGGTATCCTACTGCTTTAGTGCTAG; result = 2.25 z-score
Strand = GACGGTCTCCTACTGCTGATGTGCTAG; result = 0.951 z-score
Strand = TCAGCTTGGTGTCTCTGACTGTGCTAG; result = -0.606 z-score
Strand = CACTATTTAAGAACTATGCACGTGCTA; result = 0.764 z-score
Strand = TCATATTTTAATCACATACTGTGCTAG; result = 0.864 z-score
Strand = GACAGTTTCGGTCTCGGGACGTGCTAG; result = 8.93 z-score
Strand = CCCAATAATCTTTTCACTTTGTGCTAG; result = 1.2 z-score
Strand = CCCTTTCTCAACCTCCAGAGGTGCTAG; result = 4.87 z-score
Strand = GACGGTTCCGGTTTAGGGACGTGCTAG; result = 4.18 z-score
Strand = GACGATTTCAGTATCGAAACGTGCTAG; result = 3.01 z-score
Strand = GTCGGTTCCCTTTTCCTGACGTGCTAG; result = 7.43 z-score
Strand = TTTCTTACATGCATCATAACGTGCTAG; result = 2.17 z-score
Strand = TTATGTTTCGACTTTCGGTTAGTGCTA; result = 3.3 z-score
Strand = TTAGGACTGGGTATTGGTTAGTGCTAG; result = -0.799 z-score
Strand = TTACAACTGAGTTTCGATTAGTGCTAG; result = 2.53 z-score
Strand = GACGGATTCCTACTGCTGACGTGCTAG; result = 1.59 z-score
Strand = TTAGATATCGCGACTGGATTAGTGCTA; result = -0.327 z-score
Strand = GACGGTATCCTTATCCTGACGTGCTAG; result = 5.34 z-score
Strand = TTTAGCAGACTGAGAGGAACGTGCTAG; result = -0.437 z-score
Strand = TTAGATTTCGGGTTCCGATTAGTGCTA; result = 3.57 z-score
Strand = GACGGACTGCTTCTCCTAACGTGCTAG; result = -0.0517 z-score
Strand = GACGGACTGGACTTTCGAGACGTGCTA; result = -0.175 z-score
Strand = GACGGTATCGGACTGGGGTCGTGCTAG; result = 1.61 z-score
Strand = TTAGATTTCGGGCTTCGATTAGTGCTA; result = 0.798 z-score
Strand = GACGATATCAGACTGGTGACGTGCTAG; result = 0.23 z-score

Block 4
Target: CEP164, C-terminal peptide (human)
Technique: DHFR complementation, deep sequencing
Medium: yeast
Setting: single substitutions, model-inferred values
Reference: wild type
Direction: higher = weaker binding
Quantity: binding free energy change
Parent: PDZK1, PDZ domain 2 (human); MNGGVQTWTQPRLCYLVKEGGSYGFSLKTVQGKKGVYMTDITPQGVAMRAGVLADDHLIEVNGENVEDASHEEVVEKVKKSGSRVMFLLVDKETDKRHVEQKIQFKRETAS; partner HNRVKVYRF
Substitution = S83E; result = -0.131 kcal/mol
Substitution = G82N; result = 0.691 kcal/mol
Substitution = M48T; result = 0.558 kcal/mol
Substitution = T9Q; result = 0.0268 kcal/mol
Substitution = E76R; result = 0.0848 kcal/mol
Substitution = R84W; result = 0.297 kcal/mol
Substitution = F25K; result = 1.69 kcal/mol
Substitution = E93N; result = -0.231 kcal/mol
Substitution = V61H; result = 1.02 kcal/mol
Substitution = Q104R; result = -0.187 kcal/mol
Substitution = F105A; result = -0.186 kcal/mol
Substitution = G51M; result = 1.04 kcal/mol
Substitution = L53N; result = 0.406 kcal/mol
Substitution = G45D; result = 2.03 kcal/mol
Substitution = T39I; result = 0.00436 kcal/mol
Substitution = E72H; result = 0.549 kcal/mol
Substitution = G3N; result = -0.079 kcal/mol
Substitution = G20E; result = 0.0928 kcal/mol
Substitution = T42Y; result = 0.559 kcal/mol

Block 5
Target: RNA binding protein fox-1 homolog 2, RRM domain, GST-SBP tag (RBFOX2, Homo sapiens, UniProt O43251-10, residues 100-194)
Technique: RNA Bind-n-Seq
Molecule type: RNA
Medium: in vitro
Concentration: 365 nM
Setting: natural RNA segment, single round, ends assumed
Reference: no-protein control
Direction: higher = stronger binding
Quantity: RBNS enrichment (R)
All sequences stand within: GGGAGUUCUACAGUCCGACGAUC … UGGAAUUCUCGGGUGCCAA
Residues (chain): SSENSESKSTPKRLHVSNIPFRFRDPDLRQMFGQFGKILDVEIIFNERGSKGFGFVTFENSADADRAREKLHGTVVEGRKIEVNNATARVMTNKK
Strand = UUUAAACUGUUUUUUGCUUUUGCUUUUCCCUGACUCCCUUUGCUUGGAGUCAGCUGCACACCAGUAGUAUGGCAUGCUACGAUCAGGUUCUGUCCUGAAAGCUUUGCCUC; result = 1.39
Strand = UUCUCUAGUUCGUUGGUUUUUAACAUGAAGGUGUCUUUGGGGAGGACCUGGAUCAUGCUACCUGUGUUUAAAAAUAAUGCGCUUUGCCUAACCUUCAGCCGAAUGUAACU; result = 1.06
Strand = UAACCUUUUACUUGGGAAUGUGGUGGCCCAAUGUCAGCUGACCUGAAAGAACAUGGCUACCGUGAGACAGCCCUGUGGGCCCUGCUACCCCUCCUAUUUCUGCCUCCCUG; result = 0.348
Strand = GACAACUGAGUAGCUCCCUUGGCCCCUCCUCCAUCCUCUCACACCCUGUGCUCCGUUCCUCAGCCGUUUGGACAGGGAGCUCCGCUGUCACCAAGGAGCCCAUGUGAGAC; result = 0.416
Strand = AAAAGGGCCAGAUUUUCAGCAGCCAAGGACAUCCAUACCCAAGUGAAUGUGAUGGGACUUAAAAGAAGUGAACUGAGACAAUUCACUCUGGCUGUUUGAACAGCAGCGUU; result = 0.702
Strand = UUUUGGUUCUUGGCUUGGGGCUUUUUGUUGUUGUUGUUCUUAAUAAUAUGAGAAUCCAGUUCUCAUGACAAGAACCAGUUUAAAAACUGCUCGUUCUUAAAAAGGUAAAA; result = 0.672
Strand = CCCACUUAAUGCGUUGGAUAUGAUUUUUCAAAGAAUGCUUCAUGCCCAAAAUACCAGCCUGUUUAGCAGUGUUACACUGUUUGAUCUGCGGGCACUUGUUGCAUUGCCUG; result = 0.69
Strand = ACACCUAAGUCGUGAGCAUAUCCUGAGUUUUACUUCCUUAUGGCUUGCCCUCCAAGUUCUCUCUCUCAUACACACACACACCCUUGCUCCAGAAUCACCAGACACCUCCA; result = 1.57
Strand = CUGUGAGCCUGGUCCUUCUAGCAACCCUCAGUUAAGAUCCUGAGGGACAGGUGCAGCAGCAGCUGGCUGGAGUGGAUCAGGACUCCUGUGACUCGUGGGGCUCGGGGGAG; result = 0.529
Strand = UAACAUUGGGAUUUUACUUUGCCAGCCCCAGCCUUCAGAACUCCAUUGUCAUAGUACACCUGUAAAAAUGGUUGCACAUCAGAAGGGGCUUUGAAGCGCUUGUAUGUUGU; result = 0.749
Strand = CCCCCAUCCUAAUCAGAGUCAGCACAGCUUUCCUGUCAGAGGAUAGGAACACUUGCUCUUUGAGCCCCGUGACCGACAGUGACCAGGGAUUGGCAUUCUUGGAUUGGCAU; result = 0.299
Strand = UUGAGCACCUUACAGAUAAAACUUUUUAUGGCAUCUCUUUCAUGGACAGUGAUAUUGAUCUUUUCACAAUGUACGUAGCCUCUAGAAUUUUGUACAUAUGUUUGCUCUUU; result = 0.634

Some of these lines once more (block 1):
Substitution = R6S; result = 0.826
Substitution = P2Q; result = 1.06
Substitution = L7V; result = 0.368
Substitution = T11C; result = 2.1
Substitution = F9E; result = 0.393
Substitution = E10C; result = 1.79
Substitution = D8G; result = 0.317
Substitution = K4F; result = 0.507
Substitution = K4H; result = 0.699
Substitution = E10T; result = 1.88
